Published values collected from several papers.
Compare with care: the assays were run in different laboratories. Numbers after ± are the reported error.

COc1ccc2c3c1O[C@H]1C[C@@H](OC(=O)c4ccccc4)C=C[C@@]31CCN(C)C2 — AUC(0-inf) (healthy young men, plasma; intranasal, 11 mg, single dose): 32.9 ng·h/mL
O=C(C1CCCCC1)N1CC(=O)N2CCc3ccccc3[C@@H]2C1 — AUC(0-inf) (healthy men, plasma; oral, 40 mg/kg racemic praziquantel, geometric mean, without ritonavir): 1010 ng·h/mL
CC(C)(Sc1ccncc1-c1ccc(C#N)c2ccccc12)C(=O)O — AUC(0-inf) (healthy Japanese male subjects, plasma; oral, 15 mg single dose, day 6, fed, geometric mean): 272 ng·h/mL
NC(=O)c1cnc2[nH]ccc2c1N[C@@H]1[C@@H]2CC3C[C@H]1C[C@@](O)(C3)C2 — AUC(0-inf) (healthy Caucasian men, plasma; oral, 60 mg, single dose fasted): 529 ng·h/mL
C[C@H]1Oc2cc(cnc2N)-c2c(nn(C)c2C#N)CN(C)C(=O)c2ccc(F)cc21 — AUC(0-inf) (healthy adults; oral solution, 100 mg single dose, adjusted geometric mean): 9140 ng·h/mL
CC(C(=O)O)c1ccc(-c2ccccc2)c(F)c1 (stereo not shown) — AUC(0-inf) (healthy volunteers, plasma; oral, 100 mg, arithmetic mean, added: control beverage 250 mL): 59300 ± 18700 ng·h/mL
O=C(Nc1nc2cccc(-c3ccc(CN4CCS(=O)(=O)CC4)cc3)n2n1)C1CC1 — AUC(0-inf) (healthy subjects, plasma; oral, 100 mg single dose, 1 h after itraconazole, fasting, mean, added: itraconazole 200 mg): 3130 ng·h/mL
CC(C)(Sc1ccncc1-c1ccc(C#N)c2ccccc12)C(=O)O — AUC(0-inf) (male, plasma; oral, 15 mg, severe renal impairment, fasted): 372 ng·h/mL
CS(=O)(=O)n1cc2c(n1)CN([C@H]1CO[C@H](c3cc(F)ccc3F)[C@@H](N)C1)C2 — AUC(0-inf) (healthy Japanese men, plasma; oral, 10 mg single dose, fed, geometric mean): 10.1 µM·h
O=C(NC[C@H](O)CO)c1ccncc1Nc1ccc(I)cc1F — AUC(0-inf) (patients, plasma; oral, 60 mg single dose, day 8, median, alone): 1340 ng·h/mL
CC(C)=CCC[C@](C)(O[C@@H]1O[C@H](CO)[C@@H](O)[C@H](O)[C@H]1O)[C@H]1CC[C@]2(C)[C@@H]1[C@H](O)C[C@@H]1[C@@]3(C)CC[C@H](O[C@@H]4O[C@H](CO)[C@@H](O)[C@H](O)[C@H]4O)C(C)(C)[C@@H]3CC[C@]12C — AUC(0-inf) (LC-MS/MS; healthy male volunteers, serum; oral, 3 g fermented red ginseng): 33 ± 48.6 ng·h/mL
COc1cccc(N2CCN(C3=Nc4c(F)cccc4[C@H](CC(=O)O)N3c3cc(C(F)(F)F)ccc3OC)CC2)c1 — AUC(0-inf) (UHPLC-MS/MS; healthy women, plasma; intravenous infusion, 960 mg single dose, 60 min infusion, HPβCD formulation): 250000 ± 59200 ng·h/mL
Nc1cccc2c1C(=O)N(C1CCC(=O)NC1=O)C2=O (stereo not shown) — AUC(0-inf) (healthy male smokers, plasma; oral, 4 mg, geometric mean, ANOVA): 463 ng·h/mL
CC[C@H](C)[C@H](NC(=O)[C@H](CCC(=O)O)NC(=O)[C@H](CO)NC(=O)[C@@H](NC(=O)[C@@H](N)CO)C(C)C)C(=O)N[C@@H](CCC(N)=O)C(=O)N[C@@H](CC(C)C)C(=O)N[C@@H](CCSC)C(=O)N[C@@H](Cc1cnc[nH]1)C(=O)N[C@@H](CC(N)=O)C(=O)N[C@@H](CC(C)C)C(=O)NCC(=O)N[C@@H](CCCCN)C(=O)N[C@@H](Cc1cnc[nH]1)C(=O)N[C@@H](CC(C)C)C(=O)N[C@@H](CC(N)=O)C(=O)N[C@@H](CO)C(=O)N[C@@H](CCSC)C(=O)N[C@@H](CCC(=O)O)C(=O)N[C@@H](CCCN=C(N)N)C(=O)N[C@H](C(=O)N[C@@H](CCC(=O)O)C(=O)N[C@@H](Cc1c[nH]c2ccccc12)C(=O)N[C@@H](CC(C)C)C(=O)N[C@@H](CCCN=C(N)N)C(=O)N[C@@H](CCCCN)C(=O)N[C@@H](CCCCN)C(=O)N[C@@H](CC(C)C)C(=O)N[C@@H](CCC(N)=O)C(=O)N[C@@H](CC(=O)O)C(=O)N[C@H](C(=O)N[C@@H](Cc1cnc[nH]1)C(=O)N[C@@H](CC(N)=O)C(=O)N[C@@H](Cc1ccccc1)C(=O)O)C(C)C)C(C)C — AUC(0-inf) (postmenopausal women, osteoporosis, plasma; subcutaneous, 56.5 µg once weekly): 0.925 to 1.23 ng·h/mL
NC(=O)c1cnc2[nH]ccc2c1N[C@@H]1[C@@H]2CC3C[C@H]1C[C@@](O)(C3)C2 — AUC(0-inf) (Japanese, normal hepatic function, plasma; oral, 150 mg single dose, fasting, mean): 1150 ng·h/mL
CCOc1ccc(Cc2cc([C@@H]3S[C@H](CO)[C@@H](O)[C@H](O)[C@H]3O)c(OC)cc2C)cc1 — AUC(0-inf) (Japanese type 2 diabetes patients, plasma; oral, 5 mg single dose, eGFR 45-59 mL/min/1.73 m^2): 2160 ± 878 ng·h/mL
CCc1cc2c(cc1N1CCC(N3CCOCC3)CC1)C(C)(C)c1[nH]c3cc(C#N)ccc3c1C2=O — AUC(0-inf) (severe hepatic impairment, plasma, total; oral, 300 mg single, fed): 4260 ng·h/mL
CNC(=O)c1ccc(-c2cnc3ncc(Cc4ccc5ncccc5c4)n3n2)cc1F — AUC(0-inf) (severe hepatic impairment; oral, 200 mg, geometric mean): 7720 ng·h/mL
CCC[C@H](N[C@@H](C)C(=O)N1[C@H](C(=O)O)C[C@@H]2CCCC[C@@H]21)C(=O)O — AUC(0-inf) (healthy Chinese volunteers, whole blood; oral, 4 mg perindopril tert-butylamine, fasting, added: indapamide 1.25 mg): 73.8 ± 18.6 ng·h/mL
COc1cc(OC)c(/C=C/S(=O)(=O)Cc2ccc(OC)c(NCC(=O)O)c2)c(OC)c1 — AUC(0-inf) (cancer patients, phase I, plasma; oral, 280 mg twice daily, day 21 cycle 1): 2610 ± 1230 ng·h/mL
CC(C)=CCC[C@](C)(O[C@@H]1O[C@H](CO)[C@@H](O)[C@H](O)[C@H]1O)[C@H]1CC[C@]2(C)[C@@H]1[C@H](O)C[C@@H]1[C@@]3(C)CC[C@H](O[C@@H]4O[C@H](CO)[C@@H](O)[C@H](O)[C@H]4O[C@@H]4O[C@H](CO)[C@@H](O)[C@H](O)[C@H]4O)C(C)(C)[C@@H]3CC[C@]12C — AUC(0-inf) (LC-MS/MS; healthy volunteers, serum; oral, 3 g red ginseng): 8.2 ± 11.9 ng·h/mL
Cc1nc(-c2ccc(OCC(C)C)c(C#N)c2)sc1C(=O)O — AUC(0-inf) (healthy Chinese adult volunteers, plasma; oral, 20 mg single dose, fasting): 3550 ± 753 ng·h/mL
Cc1nc2cccc(N)c2c(=O)n1C1CCC(=O)NC1=O (stereo not shown) — AUC(0-inf) (healthy adults, plasma; oral, 3 mg, fasted geometric mean alone): 718 ng·h/mL
CCC[C@H](N[C@@H](C)C(=O)N1[C@H](C(=O)O)C[C@@H]2CCCC[C@@H]21)C(=O)OCC — AUC(0-inf) (healthy Chinese volunteers, plasma; oral, 4 mg, fasting, added: indapamide 1.25 mg): 52 ± 12.9 ng·h/mL
CN1C(=O)[C@@H](NC(=O)c2nnc(Cc3ccccc3)[nH]2)COc2ccccc21 — AUC(0-inf) (healthy men, plasma; oral, 20 mg once daily, day 1, geometric mean): 1140 ng·h/mL
